Measured values collected from several papers.
Numbered parts are unrelated; each lists some results of a single study. Values joined by “and” are separate records of one study, mostly repeats; a detail may differ. Numbers after ± are the reported error.
Chain of UniProt Q86U86 (whole entry, looked up): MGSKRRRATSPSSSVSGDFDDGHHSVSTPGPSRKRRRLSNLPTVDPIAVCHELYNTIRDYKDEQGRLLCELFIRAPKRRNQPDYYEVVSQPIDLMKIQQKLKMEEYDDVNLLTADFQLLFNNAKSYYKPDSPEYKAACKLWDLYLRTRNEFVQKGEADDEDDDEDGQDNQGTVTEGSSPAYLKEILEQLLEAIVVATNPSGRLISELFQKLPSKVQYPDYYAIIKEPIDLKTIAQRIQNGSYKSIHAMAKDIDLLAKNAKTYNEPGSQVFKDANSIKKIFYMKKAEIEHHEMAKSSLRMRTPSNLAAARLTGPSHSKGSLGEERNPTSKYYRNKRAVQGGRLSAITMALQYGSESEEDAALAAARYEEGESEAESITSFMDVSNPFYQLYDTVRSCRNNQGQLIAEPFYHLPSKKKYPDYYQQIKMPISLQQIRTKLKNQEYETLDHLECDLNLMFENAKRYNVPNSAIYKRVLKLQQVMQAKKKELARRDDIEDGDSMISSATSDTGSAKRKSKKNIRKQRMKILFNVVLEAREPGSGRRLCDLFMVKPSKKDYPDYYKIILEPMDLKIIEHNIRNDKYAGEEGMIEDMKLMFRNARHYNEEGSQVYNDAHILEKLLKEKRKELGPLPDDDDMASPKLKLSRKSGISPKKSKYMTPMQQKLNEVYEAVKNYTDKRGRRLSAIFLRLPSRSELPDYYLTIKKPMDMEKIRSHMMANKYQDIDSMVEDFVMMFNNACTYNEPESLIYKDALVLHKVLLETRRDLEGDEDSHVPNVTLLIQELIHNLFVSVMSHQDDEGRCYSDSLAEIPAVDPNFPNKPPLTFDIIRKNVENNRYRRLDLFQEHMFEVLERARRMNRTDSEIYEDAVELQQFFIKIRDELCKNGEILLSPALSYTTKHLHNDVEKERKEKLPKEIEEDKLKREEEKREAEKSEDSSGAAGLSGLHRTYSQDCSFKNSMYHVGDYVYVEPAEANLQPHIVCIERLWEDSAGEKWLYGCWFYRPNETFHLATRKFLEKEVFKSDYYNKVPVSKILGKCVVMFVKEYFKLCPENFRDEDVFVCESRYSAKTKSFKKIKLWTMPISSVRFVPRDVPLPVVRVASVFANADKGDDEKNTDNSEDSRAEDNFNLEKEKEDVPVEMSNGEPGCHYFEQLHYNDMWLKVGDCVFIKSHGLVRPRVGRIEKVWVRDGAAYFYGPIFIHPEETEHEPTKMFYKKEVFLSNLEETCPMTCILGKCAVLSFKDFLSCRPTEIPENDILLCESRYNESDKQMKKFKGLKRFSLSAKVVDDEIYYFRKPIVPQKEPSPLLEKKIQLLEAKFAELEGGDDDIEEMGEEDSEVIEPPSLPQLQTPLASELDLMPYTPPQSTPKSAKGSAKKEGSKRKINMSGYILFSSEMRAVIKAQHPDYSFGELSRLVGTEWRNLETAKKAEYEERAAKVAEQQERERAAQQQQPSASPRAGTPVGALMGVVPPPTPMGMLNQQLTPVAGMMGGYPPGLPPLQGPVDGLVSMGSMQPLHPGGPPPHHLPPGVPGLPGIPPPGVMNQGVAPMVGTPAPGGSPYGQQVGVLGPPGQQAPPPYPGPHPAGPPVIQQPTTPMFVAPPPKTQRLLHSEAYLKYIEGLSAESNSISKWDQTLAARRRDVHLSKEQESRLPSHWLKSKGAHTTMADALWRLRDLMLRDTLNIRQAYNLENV
Chain of UniProt Q15059 (whole entry, looked up): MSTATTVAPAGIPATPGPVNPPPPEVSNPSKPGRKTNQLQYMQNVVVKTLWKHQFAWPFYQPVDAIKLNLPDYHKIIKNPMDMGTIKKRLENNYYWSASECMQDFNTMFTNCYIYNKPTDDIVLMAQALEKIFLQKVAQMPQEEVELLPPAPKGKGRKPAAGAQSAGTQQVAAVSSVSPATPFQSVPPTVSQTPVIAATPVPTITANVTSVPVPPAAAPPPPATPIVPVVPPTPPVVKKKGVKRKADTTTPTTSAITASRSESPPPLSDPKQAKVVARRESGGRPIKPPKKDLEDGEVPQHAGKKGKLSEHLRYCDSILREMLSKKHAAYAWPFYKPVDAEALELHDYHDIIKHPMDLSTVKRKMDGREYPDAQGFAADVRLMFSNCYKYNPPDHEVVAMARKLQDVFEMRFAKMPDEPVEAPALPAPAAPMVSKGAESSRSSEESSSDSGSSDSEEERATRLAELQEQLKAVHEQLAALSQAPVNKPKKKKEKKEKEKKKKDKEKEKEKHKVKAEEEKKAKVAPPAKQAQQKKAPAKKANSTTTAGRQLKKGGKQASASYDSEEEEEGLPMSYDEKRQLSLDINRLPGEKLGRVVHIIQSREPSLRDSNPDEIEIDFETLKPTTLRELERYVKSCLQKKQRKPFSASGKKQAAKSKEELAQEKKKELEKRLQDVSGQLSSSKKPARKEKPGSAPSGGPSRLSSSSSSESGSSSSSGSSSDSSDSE
Chain of UniProt O15164 (whole entry, looked up): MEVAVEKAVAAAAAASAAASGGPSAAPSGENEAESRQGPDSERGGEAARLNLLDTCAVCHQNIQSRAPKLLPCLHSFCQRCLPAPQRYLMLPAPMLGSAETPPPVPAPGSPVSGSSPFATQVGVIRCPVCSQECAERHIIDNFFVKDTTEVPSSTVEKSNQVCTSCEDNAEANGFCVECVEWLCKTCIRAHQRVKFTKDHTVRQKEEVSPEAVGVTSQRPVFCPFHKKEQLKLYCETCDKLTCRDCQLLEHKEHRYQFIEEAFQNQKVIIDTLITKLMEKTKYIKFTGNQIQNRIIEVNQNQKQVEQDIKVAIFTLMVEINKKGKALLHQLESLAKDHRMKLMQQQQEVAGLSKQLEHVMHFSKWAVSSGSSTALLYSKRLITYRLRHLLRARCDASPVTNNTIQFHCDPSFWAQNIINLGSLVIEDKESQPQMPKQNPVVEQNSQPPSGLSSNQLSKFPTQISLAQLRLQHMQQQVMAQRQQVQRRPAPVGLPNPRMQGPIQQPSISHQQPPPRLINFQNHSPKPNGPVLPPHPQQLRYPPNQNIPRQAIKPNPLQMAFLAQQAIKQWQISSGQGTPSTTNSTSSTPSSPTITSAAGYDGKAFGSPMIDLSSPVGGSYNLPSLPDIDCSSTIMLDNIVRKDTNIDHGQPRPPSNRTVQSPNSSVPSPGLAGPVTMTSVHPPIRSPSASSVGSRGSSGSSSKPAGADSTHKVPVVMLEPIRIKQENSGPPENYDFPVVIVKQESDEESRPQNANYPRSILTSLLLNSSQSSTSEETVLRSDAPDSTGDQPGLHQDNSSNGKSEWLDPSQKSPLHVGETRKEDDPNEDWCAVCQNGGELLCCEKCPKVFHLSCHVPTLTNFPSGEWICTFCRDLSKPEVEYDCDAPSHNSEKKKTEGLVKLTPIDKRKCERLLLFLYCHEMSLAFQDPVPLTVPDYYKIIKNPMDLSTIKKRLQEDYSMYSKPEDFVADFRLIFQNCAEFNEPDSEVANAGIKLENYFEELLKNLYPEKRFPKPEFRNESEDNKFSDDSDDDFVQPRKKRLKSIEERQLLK

Set 1
SMILES: Cc1cnc(Nc2ccc(OCCN3CCCC3)cc2)nc1Nc1cccc(S(=O)(=O)NC(C)(C)C)c1
Concentration: 10 µM
target	observed	technique	ΔTm
Protein polybromo-1, BD3 (PBRM1, Homo sapiens, UniProt Q86U86)	–	thermal shift	-0.07 ± 0.18 °C
Bromodomain and WD repeat-containing protein 1, BD2 (BRWD1, Homo sapiens, UniProt Q9NSI6)	thermal stability	DSF	-0.1 °C
Bromodomain-containing protein 2, BD2 (BRD2, Homo sapiens, UniProt P25440)	thermal stability	DSF	2.49 °C
Histone acetyltransferase KAT2B (KAT2B, Homo sapiens, UniProt Q92831)	thermal stability	DSF	0.29 °C
Protein polybromo-1, BD6 (PBRM1, Homo sapiens, UniProt Q86U86)	–	thermal shift	0.58 ± 0.08 °C
Bromodomain-containing protein 3, BD1 (BRD3, Homo sapiens, UniProt Q15059)	thermal stability	DSF	3.34 °C
Transcription initiation factor TFIID subunit 1, BD1 (TAF1, Homo sapiens, UniProt P21675)	thermal stability	DSF	0.01 °C
Peregrin, bromodomain (BRPF1, Homo sapiens, UniProt P55201)	thermal stability	DSF	0.94 °C
Bromodomain adjacent to zinc finger domain protein 2B, bromodomain (BAZ2B, Homo sapiens, UniProt Q9UIF8)	thermal stability	DSF	-0.13 °C
Transcription intermediary factor 1-alpha (TRIM24, Homo sapiens, UniProt O15164)	thermal stability	DSF	0 °C
Protein polybromo-1, BD1 (PBRM1, Homo sapiens, UniProt Q86U86)	thermal stability	DSF	0.12 °C
Transcription initiation factor TFIID subunit 1-like, BD1 (TAF1L, Homo sapiens, UniProt Q8IZX4)	thermal stability	DSF	0.41 °C

Set 2
Cell line: mouse MPNST tumor cells
Technique: high-content immunofluorescence imaging
Refers to: nuclear SOX9
Concentration: 10 µM
Time: 12 h
Setting: mean of 2 replicates
Reference: DMSO control
Direction: higher = more nuclear SOX9
SMILES	nuclear SOX9 intensity
COc1cc(O)c(CC=C(C)C)c(O)c1C(=O)/C=C/c1ccc(O)cc1	179 % of DMSO
C[N+]1(C)CCC(=C(c2ccccc2)c2ccccc2)CC1	102 % of DMSO
COc1cc(C(C)C)c2c(c1)S(=O)(=O)N(COc1cc(=O)n3cccc(OCCN4CCCCC4)c3n1)C2=O	106 % of DMSO
C=CC(=O)N1C[C@H](Nc2ncnc3[nH]ccc23)CC[C@@H]1C	89.9 % of DMSO
COc1cccc(-c2cc(=O)c3ccccc3o2)c1N	83.4 % of DMSO
CCOc1ccc(Oc2ccc(OCc3cc(F)ccc3F)cc2)c(N)c1	91.5 % of DMSO
CC(C)C(=O)c1c(C(C)C)nn2ccccc12	125 % of DMSO and 101 % of DMSO
Nc1cccc(CNC(=O)c2ccc(Oc3ccc(OCc4cccc(F)c4)cc3)nc2)c1	100 % of DMSO
O=C(Nc1ccc([N+](=O)[O-])cc1Cl)c1cc(Cl)ccc1O	112 % of DMSO and 103 % of DMSO
Cc1c(-c2ccccc2)oc2c(C(=O)OCCN3CCCCC3)cccc2c1=O	110 % of DMSO
CNCCc1ccccn1	101 % of DMSO
COCC[n+]1c2c(n(Cc3cnccn3)c1C)C(=O)c1ccccc1C2=O	107 % of DMSO
C[C@H]1Oc2cc(cnc2N)-c2c(nn(C)c2C#N)CN(C)C(=O)c2ccc(F)cc21	109 % of DMSO
CCCn1c(=O)[nH]c2nc(-c3ccc(S(=O)(=O)N4CCN(Cc5ccc(Cl)cc5)CC4)cc3)[nH]c2c1=O	139 % of DMSO
CCOC(=O)c1c(-c2ccccc2)oc2ccc(Oc3c([N+](=O)[O-])ncn3C)cc12	79.4 % of DMSO
Cc1cc(C)c(N(Cc2ccccc2)S(=O)(=O)c2ccc(OCCNC(=O)c3cc4ccccc4o3)cc2)c(C(=O)NO)c1	142 % of DMSO

Set 3
Target: Platelet-derived growth factor receptor beta (PDGFRB, Homo sapiens, UniProt P09619)
Chain of UniProt P09619 (whole entry, looked up): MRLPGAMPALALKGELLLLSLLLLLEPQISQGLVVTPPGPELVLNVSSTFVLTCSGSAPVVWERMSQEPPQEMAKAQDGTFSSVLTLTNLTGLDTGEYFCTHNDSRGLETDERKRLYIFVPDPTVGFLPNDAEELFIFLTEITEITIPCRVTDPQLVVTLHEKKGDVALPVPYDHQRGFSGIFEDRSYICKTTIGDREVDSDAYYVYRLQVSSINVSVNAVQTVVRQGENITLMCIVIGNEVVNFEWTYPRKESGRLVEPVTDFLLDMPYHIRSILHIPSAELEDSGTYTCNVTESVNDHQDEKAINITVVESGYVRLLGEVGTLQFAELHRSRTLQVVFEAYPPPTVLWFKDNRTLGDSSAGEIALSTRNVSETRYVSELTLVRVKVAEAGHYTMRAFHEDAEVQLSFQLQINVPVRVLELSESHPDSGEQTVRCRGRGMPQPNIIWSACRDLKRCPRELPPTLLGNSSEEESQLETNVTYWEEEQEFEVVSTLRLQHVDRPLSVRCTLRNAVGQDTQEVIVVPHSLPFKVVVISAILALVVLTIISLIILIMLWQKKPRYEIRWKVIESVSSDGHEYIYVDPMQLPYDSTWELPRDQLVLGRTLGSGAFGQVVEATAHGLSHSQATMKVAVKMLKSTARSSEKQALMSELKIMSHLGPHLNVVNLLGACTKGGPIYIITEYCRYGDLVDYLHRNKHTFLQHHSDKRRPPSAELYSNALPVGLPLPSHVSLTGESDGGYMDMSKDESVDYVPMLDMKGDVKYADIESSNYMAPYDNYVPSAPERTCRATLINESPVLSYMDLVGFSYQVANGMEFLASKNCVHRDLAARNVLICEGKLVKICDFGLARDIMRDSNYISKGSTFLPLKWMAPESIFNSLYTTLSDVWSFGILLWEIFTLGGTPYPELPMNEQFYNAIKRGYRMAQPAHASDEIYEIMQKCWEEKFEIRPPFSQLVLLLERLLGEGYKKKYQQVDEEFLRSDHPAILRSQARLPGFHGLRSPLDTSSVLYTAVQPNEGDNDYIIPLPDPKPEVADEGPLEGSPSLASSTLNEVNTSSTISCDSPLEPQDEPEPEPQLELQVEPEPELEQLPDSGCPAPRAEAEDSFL
Observed: enzyme activity
Mode: inhibitor
Concentration: 0.5 µM
Reference: control
Compound	remaining activity [%]
Ic1cccc(CSc2nnc(-c3ccncc3)o2)c1	97.7
Cn1nc2c3c(cccc31)C(=O)c1ccccc1-2	100
Cc1cn(-c2cc(NC(=O)c3ccc(C)c(Nc4nccc(-c5cccnc5)n4)c3)cc(C(F)(F)F)c2)cn1	28.4
O=C1C(Cl)=C(N2C(=O)CCC2=O)C(=O)c2ccccc21	103
O=C(NC(NC(=S)Nc1ccc(F)c([N+](=O)[O-])c1)C(Cl)(Cl)Cl)C(c1ccccc1)c1ccccc1 (centres unmarked)	105
Cc1nc2cc3nc(-c4cccs4)cnc3cc2n1C	63.3
c1ccc(-c2[nH]ncc2-c2ccnc3ccccc23)nc1	106
N#Cc1c(NC(=O)c2cccc3ccccc23)sc2c1CCCC2	98.9
CN(C)C[C@H]1CCn2c(c(C3=C(c4cn(C)c5ccccc45)C(=O)NC3=O)c3ccccc32)C1	102
N#C/C(=C\c1ccc(O)c(O)c1)C(=O)NCc1ccccc1	100
CN([C@@H](Cc1ccc(OS(=O)(=O)c2cccc3cnccc23)cc1)C(=O)N1CCN(c2ccccc2)CC1)S(=O)(=O)c1cccc2cnccc12	104
COc1cc2ncnc(Nc3ccc(O)c(Br)c3)c2cc1OC	93.7
Cc1cc2ncc(-c3ccccc3)nc2cc1C	89.1
CCN(CC)C(=O)c1ccc(Nc2nc(OCC3CCCCC3)c3[nH]cnc3n2)cc1	54.6
Nc1cccc(-c2cc3c(Oc4cccc(O)c4)ncnc3[nH]2)c1	39.9
O=C(Nc1cccc(Nc2nccc(Nc3cccc(C(F)(F)F)c3)n2)c1)C1CC1	101
c1ccc(-c2cnc(Nc3ccc(OCCN4CCCC4)cc3)s2)cc1	28.5
CCOc1nc(NC(=O)Cc2cc(OC)ccc2OC)cc(N)c1C#N	104
COc1cc2ncnc(Nc3cccc(Cl)c3)c2cc1OC	100

Set 4
SMILES: CCOc1cn(-c2ccc(F)cc2C)nc1C(=O)Nc1ccc(Oc2ccnc3cc(OC)c(OC)cc23)c(F)c1
Concentration: 1 µM
Reference: DMSO
cell line	technique	setting	viability
normal colon patient-derived organoid sample E	–	–	72.7%
normal colon patient-derived organoids	CellTiter-Glo	average of five organoid lines	80.8%
normal colon patient-derived organoid sample H	–	–	109%
normal colon patient-derived organoid sample F	–	–	104%
normal colon patient-derived organoid sample D	–	–	97.4%
normal colon patient-derived organoid sample G	–	–	20.7%

A few entries again (set 3):
Compound	remaining activity [%]
O=C1C(Cl)=C(N2C(=O)CCC2=O)C(=O)c2ccccc21	103
O=C(NC(NC(=S)Nc1ccc(F)c([N+](=O)[O-])c1)C(Cl)(Cl)Cl)C(c1ccccc1)c1ccccc1 (centres unmarked)	105
Cc1nc2cc3nc(-c4cccs4)cnc3cc2n1C	63.3
c1ccc(-c2[nH]ncc2-c2ccnc3ccccc23)nc1	106
N#Cc1c(NC(=O)c2cccc3ccccc23)sc2c1CCCC2	98.9
CN(C)C[C@H]1CCn2c(c(C3=C(c4cn(C)c5ccccc45)C(=O)NC3=O)c3ccccc32)C1	102
N#C/C(=C\c1ccc(O)c(O)c1)C(=O)NCc1ccccc1	100
CN([C@@H](Cc1ccc(OS(=O)(=O)c2cccc3cnccc23)cc1)C(=O)N1CCN(c2ccccc2)CC1)S(=O)(=O)c1cccc2cnccc12	104
